Measurements from different studies.
Protocols differ between the studies behind these lines.

For `COC(=O)C1=CNC=C(C(=O)OC)C1c1ccc(F)c(C(F)(F)F)c1`, the Vd was 2.19 L/kg (male C57BL/6 mouse, plasma; intravenous, 2 mg/kg).
The Vd of `Cc1cc(C(=O)N[C@@H](CC(=O)NC(C)(C)C)C(=O)NCCNC(=O)c2cccc(-c3cc[nH]n3)c2)no1` is reported as 2.39 L/kg (mouse, plasma; intravenous, 0.1 mg/kg).
The Vd of `O=C(NCCCCc1ccccc1)n1c(=O)oc2cc(-c3ccc(F)cc3)ccc21` is reported as 11.6 L/kg (CD-1 mouse, plasma; intraperitoneal, 10 mg/kg).
`CCC(=O)NC1CC=C(c2cc3c(Nc4cc5ncsc5cc4F)ncnc3s2)CC1` (racemic) gave a Vd of 2.74 L/kg (mouse, plasma; intravenous, 10 mg/kg).
`C/C(N)=N/C(=N\S(=O)(=O)c1ccc(C(F)(F)F)cc1)N1C[C@H](c2ccccc2)C(c2ccc(Cl)cc2)=N1` gave a Vd of 3.5 L/kg (C57BL/6 mouse, plasma; intravenous, 10 mg/kg).
`CCC1(CC)CC(=O)N(C2CCOc3ccc(C(=O)NC4CC(C)(C)Oc5ccccc54)cc32)C(=N)N1` (stereo not drawn) gave a Vd of 6.6 L/kg (male C57BL/6 mouse, plasma; intravenous, 2 mg/kg).
With `CCC(=O)N1CCC=C(c2cc3c(Nc4cc5ncsc5cc4F)ncnc3s2)C1` the Vd was 3.73 L/kg (mouse, plasma; intravenous, 10 mg/kg).
With `COc1cnc2cccc(N3CCc4c(cc(Cn5ccnc5)cc4-c4cn(C)nc4C(F)(F)F)C3=O)c2c1` the Vd was 0.8 L/kg (male CD-1 mouse, plasma; intravenous, 3 mg/kg).
`O=C(C1CC1)N1CCC=C(c2cc3c(Nc4cc5ncsc5cc4F)ncnc3s2)C1` gave a Vd of 7.93 L/kg (mouse, plasma; intravenous, 10 mg/kg).
The Vd of `Fc1cccc(-n2cc(-c3ccccc3)nc2NCc2ccc(C(F)(F)F)c(Br)c2)c1` is reported as 6 L/kg (male CD-1 mouse, plasma; intraperitoneal, 25 mg/kg, single dose).
`COC1C=COC2(C)Oc3c(C)c(O)c4c(c3C2=O)C2=NC3(CCN(CC(C)C)CC3)NC2=C(NC(=O)C(C)=CC=CC(C)C(O)C(C)C(O)C(C)C(OC(=O)c2cccnc2)C1C)C4=O` (stereo not drawn) gave a Vd of 1.8 L/kg (female CD-1 mouse, plasma; intravenous, 5 mg/kg).
`CCC1C(COc2nccc3cc(C(N)=O)c(OC)cc23)NC(=O)C1F` (stereo not drawn) has a Vd of 69.9 L/kg (CD-1 mouse, plasma; intravenous, 1 mg/kg).
For `O=C(Nc1ccc(C(F)F)cc1)[C@H](CC1CCCCC1)Nc1nn2c(=O)ccnc2s1`, the Vd was 1.17 L/kg (female nude mouse, plasma; intravenous, 1 mg/kg).
`COC1C=COC2(C)Oc3c(C)c(O)c4c(c3C2=O)C2=NC3(CCN(CC(C)C)CC3)NC2=C(NC(=O)C(C)=CC=CC(C)C(O)C(C)C(O)C(C)C(OC(=O)Nc2cscn2)C1C)C4=O` (stereo not drawn) has a Vd of 1.5 L/kg (female CD-1 mouse, plasma; intravenous, 5 mg/kg).
With `O=C1CCC(N2Cc3cc(C(=O)O)c(F)cc3C2=O)C(=O)N1` (stereo not drawn) the Vd was 1.9 L/kg (male CD-1 mouse, plasma; intravenous, 1 mg/kg).
With `FC(F)(F)Oc1ccc2[nH]c(-c3ccc(OCCN4CCOCC4)cn3)nc2c1` the Vd was 194 mL (mouse, plasma; intraperitoneal, 100 mg/kg).
For `O=C1CCC(N2C(=O)c3ccc(N4CCC(C(=O)N5CCC(CCN6CCC(CNC(=O)c7cccc(-c8noc(C(F)(F)F)n8)c7)(c7nc(-c8ccccc8)cs7)CC6)CC5)CC4)cc3C2=O)C(=O)N1` (stereo not drawn), the Vd was 19.5 L/kg (CD-1 mouse, plasma; intraperitoneal, 30 mg/kg).
With `Cc1cc(NCCOC(C)C)c2nc(N3CCOC[C@H]3C)cc(=O)n2c1` the Vd was 0.924 L/kg (C57BL/6 mouse, plasma; intraperitoneal, 10 mg/kg, single dose).
`O=C(O)c1ccc(/C=C2\SC(=S)N(Cc3cccc(C(F)(F)F)c3)C2=O)cc1` has a Vd of 0.46 L/kg (C57BL/6 mouse, blood; intravenous, 5 mg/kg).
`Cc1cc(C(=O)N[C@@H](CC(=O)NC(C)(C)C)C(=O)NCCNC(=O)c2cc(-c3ccccc3)ccn2)no1` has a Vd of 1.96 L/kg (mouse, plasma; intravenous, 0.1 mg/kg).
With `Nc1ccc(-c2cc(Cl)c(Cl)c3[nH]c4c(c23)CN(C(=O)CO)CC4)cn1` the Vd was 1.03 L/kg (C57BL/6 mouse, blood; intravenous, 0.5 mg/kg).
